Earlier results, collected from citations in different studies.
Each line is one published result; not all experiments were run side by side. ± marks the error that the study gave.
Chain of UniProt P41145 (whole entry, looked up): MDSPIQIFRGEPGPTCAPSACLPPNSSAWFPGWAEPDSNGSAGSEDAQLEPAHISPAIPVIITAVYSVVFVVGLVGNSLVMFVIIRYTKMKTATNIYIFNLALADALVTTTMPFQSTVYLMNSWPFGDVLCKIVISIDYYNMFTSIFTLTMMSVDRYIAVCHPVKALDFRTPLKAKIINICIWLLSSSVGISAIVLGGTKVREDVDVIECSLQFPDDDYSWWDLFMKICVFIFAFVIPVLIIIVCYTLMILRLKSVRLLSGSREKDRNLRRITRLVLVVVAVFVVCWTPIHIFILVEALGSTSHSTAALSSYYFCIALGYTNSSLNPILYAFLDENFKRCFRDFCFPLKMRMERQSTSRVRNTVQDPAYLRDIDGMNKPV

For `NC(=O)C[S+]([O-])C(c1ccccc1)c1ccccc1` (stereo not drawn), the fraction unbound was 0.4 (plasma).
`CNS(=O)(=O)Nc1nccc(Cc2c(C)c3ccc(Oc4ncccn4)cc3oc2=O)c1F` — result for “maximum tolerated dose”: 2.7 mg (human patients; oral, 7 days on, 7 days off).
The EC50 of `C/C=C1/CN2CC[C@]34C(=C(C(=O)OC)[C@H]1C[C@H]23)Nc1ccccc14` is reported as 39 µM (Kappa-type opioid receptor (OPRK1, Homo sapiens, UniProt P41145)).
With `Cc1cc(Nc2ncc(Cl)c(Nc3ccccc3S(=O)(=O)C(C)C)n2)c(OC(C)C)cc1C1CCNCC1` the MTD was 750 mg (cancer patients; oral, daily, fasted, single agent).
For `C=C(C)[C@@H]1CCC(C)=C[C@H]1c1c(O)cc(CCCCC)cc1O`, the AUC increase was 58% (refers to: midazolam; human; dose not given, together with: midazolam).
With `CCCCC/C=C\C/C=C\C/C=C\C/C=C\CCCC(=O)N[C@H](C)CO` the Ki was 17.9 nM (cannabinoid receptor CB1).
For `OCCN1CCN(CCC=C2c3ccccc3Sc3ccc(C(F)(F)F)cc32)CC1`, “log2 fold change” read 1.18 (MCF7; microarray, refers to: TMEM41B mRNA; concentration not given; reference: DMSO).
`N.N.[Cl][Pt][Cl]` gave an IC50 of 3.5 ± 0.21 µM (MDA-MB-231).
With `CCCCC/C=C\C/C=C\C/C=C\C/C=C\CCCC(=O)NCCCl` the Ki was 1.4 nM (cannabinoid receptor CB1).

Repeated from above:
The EC50 of `C/C=C1/CN2CC[C@]34C(=C(C(=O)OC)[C@H]1C[C@H]23)Nc1ccccc14` is reported as 39 µM (Kappa-type opioid receptor (OPRK1, Homo sapiens, UniProt P41145)).
